Earlier results as cited in several papers.
Each numbered part shows a few of the values that one paper quotes. Numbers after ± are the reported error.

The chains behind the UniProt entries cited, without tags or fusion partners.
UniProt P0DOF5, whole entry: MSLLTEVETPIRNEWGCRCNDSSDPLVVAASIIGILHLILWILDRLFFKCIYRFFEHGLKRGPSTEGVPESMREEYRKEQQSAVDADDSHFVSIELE
UniProt Q99816, whole entry, looked up: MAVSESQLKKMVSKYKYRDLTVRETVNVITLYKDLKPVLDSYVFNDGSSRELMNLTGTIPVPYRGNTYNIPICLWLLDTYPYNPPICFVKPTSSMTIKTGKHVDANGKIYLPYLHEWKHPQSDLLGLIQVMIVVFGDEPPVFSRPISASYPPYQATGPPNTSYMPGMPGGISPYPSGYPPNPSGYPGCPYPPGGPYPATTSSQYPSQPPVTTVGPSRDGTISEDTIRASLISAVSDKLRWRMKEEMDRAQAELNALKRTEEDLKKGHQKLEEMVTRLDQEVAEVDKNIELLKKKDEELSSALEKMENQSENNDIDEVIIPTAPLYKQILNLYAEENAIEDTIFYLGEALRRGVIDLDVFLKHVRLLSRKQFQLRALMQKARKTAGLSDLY
UniProt P14416, whole entry: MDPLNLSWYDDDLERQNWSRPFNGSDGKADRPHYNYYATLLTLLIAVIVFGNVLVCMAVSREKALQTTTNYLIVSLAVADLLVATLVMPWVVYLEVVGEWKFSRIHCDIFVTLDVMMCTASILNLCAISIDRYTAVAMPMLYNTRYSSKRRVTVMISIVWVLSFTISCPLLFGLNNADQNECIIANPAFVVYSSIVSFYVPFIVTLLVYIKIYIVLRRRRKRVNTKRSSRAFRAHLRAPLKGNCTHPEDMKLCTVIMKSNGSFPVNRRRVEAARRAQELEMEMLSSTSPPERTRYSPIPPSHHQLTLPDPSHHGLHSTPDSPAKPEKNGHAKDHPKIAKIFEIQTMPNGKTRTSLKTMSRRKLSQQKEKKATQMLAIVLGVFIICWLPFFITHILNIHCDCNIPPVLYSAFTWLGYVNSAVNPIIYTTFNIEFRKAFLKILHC
UniProt P09884, whole entry: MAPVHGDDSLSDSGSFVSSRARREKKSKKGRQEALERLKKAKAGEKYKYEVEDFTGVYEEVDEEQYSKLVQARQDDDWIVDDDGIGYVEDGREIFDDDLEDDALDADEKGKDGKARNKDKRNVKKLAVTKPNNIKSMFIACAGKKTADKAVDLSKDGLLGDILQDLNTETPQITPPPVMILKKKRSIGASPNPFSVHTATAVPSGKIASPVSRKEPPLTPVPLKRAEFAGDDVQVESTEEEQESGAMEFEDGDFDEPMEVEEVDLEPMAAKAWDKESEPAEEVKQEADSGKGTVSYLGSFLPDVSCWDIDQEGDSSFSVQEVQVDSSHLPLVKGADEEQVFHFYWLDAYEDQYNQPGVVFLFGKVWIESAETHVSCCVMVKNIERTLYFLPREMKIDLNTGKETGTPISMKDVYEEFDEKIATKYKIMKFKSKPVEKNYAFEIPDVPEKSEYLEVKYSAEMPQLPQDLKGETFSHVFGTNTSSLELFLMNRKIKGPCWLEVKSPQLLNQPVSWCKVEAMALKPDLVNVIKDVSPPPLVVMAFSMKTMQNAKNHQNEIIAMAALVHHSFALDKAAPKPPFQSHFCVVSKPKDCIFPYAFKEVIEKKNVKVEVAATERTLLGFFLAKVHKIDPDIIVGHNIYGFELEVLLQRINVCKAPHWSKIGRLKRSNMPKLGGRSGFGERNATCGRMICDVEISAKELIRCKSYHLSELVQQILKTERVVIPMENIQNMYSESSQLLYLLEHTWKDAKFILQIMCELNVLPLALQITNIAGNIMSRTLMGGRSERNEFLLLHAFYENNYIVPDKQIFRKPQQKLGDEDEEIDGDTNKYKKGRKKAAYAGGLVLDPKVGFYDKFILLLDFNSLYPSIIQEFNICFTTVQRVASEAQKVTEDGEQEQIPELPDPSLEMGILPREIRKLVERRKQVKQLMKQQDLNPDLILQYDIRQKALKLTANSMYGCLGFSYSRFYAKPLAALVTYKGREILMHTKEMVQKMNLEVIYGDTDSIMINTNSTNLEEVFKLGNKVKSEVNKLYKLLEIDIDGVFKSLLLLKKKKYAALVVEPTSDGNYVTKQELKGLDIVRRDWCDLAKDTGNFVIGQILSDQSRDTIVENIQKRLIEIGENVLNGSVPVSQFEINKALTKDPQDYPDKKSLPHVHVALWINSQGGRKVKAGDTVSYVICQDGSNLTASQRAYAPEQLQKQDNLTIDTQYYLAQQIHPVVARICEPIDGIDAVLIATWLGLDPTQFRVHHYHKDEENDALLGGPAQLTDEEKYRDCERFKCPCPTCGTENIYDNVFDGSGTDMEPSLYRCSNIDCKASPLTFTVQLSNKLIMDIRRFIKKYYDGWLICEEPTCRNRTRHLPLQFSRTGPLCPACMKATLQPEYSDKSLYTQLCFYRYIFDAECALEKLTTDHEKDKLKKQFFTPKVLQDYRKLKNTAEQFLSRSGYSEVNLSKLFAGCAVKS

Series 1
Target: HLA class I histocompatibility antigen, A alpha chain, allele A*26:03 (Homo sapiens, UniProt P04439)
SMILES	IC50 [µM]
CC[C@H](C)[C@H](NC(=O)CNC(=O)[C@H](CCSC)NC(=O)[C@H](CCC(=O)O)NC(=O)[C@@H](N)CCCNC(=N)N)C(=O)N[C@H](C(=O)N[C@@H](CC(=O)O)C(=O)N[C@@H](CC(C)C)C(=O)N[C@@H](CC(C)C)C(=O)O)C(C)C	> 20
CC[C@H](C)[C@H](NC(=O)[C@H](CCC(=O)O)NC(=O)CN)C(=O)N[C@@H](Cc1ccccc1)C(=O)NCC(=O)N[C@@H](CC(C)C)C(=O)N[C@@H](CC(C)C)C(=O)NCC(=O)N1CCC[C@H]1C(=O)O	> 20
NCC(=O)N[C@@H](Cc1c[nH]c2ccccc12)C(=O)N1CCC[C@H]1C(=O)N[C@@H](CC(=O)O)C(=O)N[C@@H](CC(N)=O)C(=O)N[C@@H](Cc1ccc(O)cc1)C(=O)N[C@@H](CS)C(=O)N[C@@H](CCC(=O)O)C(=O)N[C@@H](Cc1c[nH]c2ccccc12)C(=O)O	> 20
CC[C@H](C)[C@H](NC(=O)[C@H](CCC(=O)O)NC(=O)[C@H](CCC(N)=O)NC(=O)[C@H](Cc1cnc[nH]1)NC(=O)[C@@H](NC(=O)[C@H](CS)NC(=O)[C@H](Cc1ccc(O)cc1)NC(=O)[C@H](CC(C)C)NC(=O)[C@@H](N)[C@@H](C)O)C(C)C)C(=O)O	> 20
CC[C@H](C)[C@H](NC(=O)CNC(=O)[C@@H](NC(=O)[C@H](CCC(=O)O)NC(=O)CN)[C@@H](C)CC)C(=O)N[C@@H](CCCNC(=N)N)C(=O)N[C@@H](CC(N)=O)C(=O)N[C@@H](Cc1c[nH]c2ccccc12)C(=O)N[C@@H](CC(C)C)C(=O)O	> 20
CC[C@H](C)[C@H](NC(=O)[C@H](Cc1cnc[nH]1)NC(=O)[C@@H]1CCCN1C(=O)[C@H](CCCCN)NC(=O)[C@H](CC(C)C)NC(=O)[C@H](Cc1ccc(O)cc1)NC(=O)[C@@H](N)CO)C(=O)N[C@@H](Cc1ccccc1)C(=O)N[C@@H](CCC(=O)O)C(=O)O	> 20
CC(C)C[C@H](N)C(=O)N[C@H](C(=O)NCC(=O)NCC(=O)N[C@@H](CCCNC(=N)N)C(=O)N[C@@H](CCC(=O)O)C(=O)N[C@@H](Cc1c[nH]c2ccccc12)C(=O)N[C@@H](CO)C(=O)N[C@@H](Cc1ccc(O)cc1)C(=O)O)C(C)C	> 20

Mixed results
SMILES	target or system	test	test system	setting	scale	quantity	result
Cc1cc(O)cc(C)c1C[C@H](N)C(=O)N[C@H](CCCNC(=N)N)C(=O)N[C@@H](Cc1ccccc1)C(=O)N[C@@H](CCCCN)C(=O)NCCNC(=O)[C@H](Cc1ccccc1)NC(=O)[C@H](CC1CCCCC1)NC[C@@H]1Cc2ccccc2CN1C(=O)[C@@H](N)Cc1ccc(O)cc1		muscle contraction, agonist	guinea pig ileum			IC50	0.0665 ± 0.0054 µM
O=C(Nc1cccc(C2=NCCN2)c1)c1ccc(-c2ccc(C(=O)Nc3cccc(C4=NCCN4)c3)cc2)cc1		DSC	AT-rich DNA dodecamer duplex		higher = stronger binding	ΔTm	11 °C
C1CCC2(CC1)CCNCC2	Matrix protein 2 (Influenza A virus, UniProt P0DOF5)	inhibitor				IC50	0.9 ± 0.1 µM
Cc1cc(Nc2ccc(S(F)(F)(F)(F)F)cc2)n2nc(C(C)(F)F)nc2n1	Plasmodium falciparum		mouse	dose not given, twice daily dosing		AUC at ED90	26 µM.h/day
CSCC[C@H](NC(=O)[C@@H]1CCCN1C(=O)[C@@H]1CCCN1C(=O)[C@H](CCSC)NC(=O)[C@@H]1CCCN1C(=O)[C@@H]1CCCN1C(=O)[C@H](C)NC(=O)[C@H](CO)NC(=O)[C@@H]1CCCN1C(=O)[C@@H](NC(=O)[C@H](CC(C)C)NC(=O)[C@H](CO)NC(=O)CNC(=O)CNC(=O)[C@@H](N)Cc1ccc(O)cc1)C(C)C)C(=O)O	Tumor susceptibility gene 101 protein, UEV domain (Homo sapiens, UniProt Q99816)			25 °C		Kd	7.7 µM
Clc1ccc(N2CCN(Cc3cnn4ccccc34)CC2)cc1	DRD2 (Homo sapiens, UniProt P14416)	binding				Ki	3.2 ± 0.058 µM
Cc1cn([C@@H]2CC[C@H](OC(C(=O)O)P(=O)(O)O)C2)c(=O)[nH]c1=O (relative stereo)	POLA1 (Homo sapiens, UniProt P09884)	enzyme activity, inhibitor				IC50	229 µM

Some of these lines once more (mixed results):
SMILES	target or system	test	test system	setting	scale	quantity	result
C1CCC2(CC1)CCNCC2	Matrix protein 2 (Influenza A virus, UniProt P0DOF5)	inhibitor				IC50	0.9 ± 0.1 µM
Cc1cn([C@@H]2CC[C@H](OC(C(=O)O)P(=O)(O)O)C2)c(=O)[nH]c1=O (relative stereo)	POLA1 (Homo sapiens, UniProt P09884)	enzyme activity, inhibitor				IC50	229 µM
